Assay results pooled from the literature.
Values joined by “and” are separate records of one study, mostly repeats; a detail may differ.
Cell line: HL-60

[Ru+2].c1ccc(-c2cccc(-c3ccccn3)n2)nc1.c1ccc2nc(-c3ccc4ccccc4n3)ccc2c1.c1ccncc1  phototoxicity index (relative to: dark IC50 over light IC50): 2.8
C(=C/c1ccccc1)/c1ccccc1  EC50 (apoptosis, Hoechst nuclear staining; 24 h, 50% apoptosis induction): 49 µM
CC(C)(C)c1ccc2[c](c1)[Au-]1([S]c3ccccc3)[c]3cc(C(C)(C)C)ccc3-c3cncc-2[n+]31  cell proliferation (10 µM, 72 h): not toxic
C=C1[C@H](O)CC(=C/C=C2\CCC[C@]3(C)[C@@H]([C@@H](C)CCCCO)CC[C@@H]23)C[C@H]1O  EC50 ratio (cell differentiation, NBT reduction; relative to: compound over 1α,25-dihydroxyvitamin D3): 1.5
[Ru+2].c1ccc(-c2cccc(-c3ccccn3)n2)nc1.c1cnc(-c2cnccn2)cn1.c1cnccn1  IC50 (cell growth or viability; dark): ~30 µM and 30 µM
CC1[C@H](O)CC(=C/C=C2\CCC[C@]3(C)[C@@H]([C@H](C)CCCCO)CC[C@@H]23)C[C@H]1O (some centres unmarked)  EC50 ratio (cell differentiation, NBT reduction; relative to: compound over 1α,25-dihydroxyvitamin D3): 15
CC(C)(C)c1ccc2[c](c1)[Au-]1([C]#Cc3ccccc3)[c]3cc(C(C)(C)C)ccc3-c3cncc-2[n+]31  cell proliferation (10 µM, 72 h): not toxic
COc1c(O)cc2oc3cc4c(c(O)c3c(=O)c2c1CCC(C)C)CC(O)O4 (centres unmarked)  IC50 (cell growth or viability; 48 h): 6.9 µM

A few entries again:
CC(C)(C)c1ccc2[c](c1)[Au-]1([S]c3ccccc3)[c]3cc(C(C)(C)C)ccc3-c3cncc-2[n+]31  cell proliferation (10 µM, 72 h): not toxic
